Measurements pooled from the literature.
Numbered parts are unrelated; each lists some results of a single study. Substitutions count along the parent as printed.
Sequence of UniProt Q9UJQ4 (whole entry, looked up): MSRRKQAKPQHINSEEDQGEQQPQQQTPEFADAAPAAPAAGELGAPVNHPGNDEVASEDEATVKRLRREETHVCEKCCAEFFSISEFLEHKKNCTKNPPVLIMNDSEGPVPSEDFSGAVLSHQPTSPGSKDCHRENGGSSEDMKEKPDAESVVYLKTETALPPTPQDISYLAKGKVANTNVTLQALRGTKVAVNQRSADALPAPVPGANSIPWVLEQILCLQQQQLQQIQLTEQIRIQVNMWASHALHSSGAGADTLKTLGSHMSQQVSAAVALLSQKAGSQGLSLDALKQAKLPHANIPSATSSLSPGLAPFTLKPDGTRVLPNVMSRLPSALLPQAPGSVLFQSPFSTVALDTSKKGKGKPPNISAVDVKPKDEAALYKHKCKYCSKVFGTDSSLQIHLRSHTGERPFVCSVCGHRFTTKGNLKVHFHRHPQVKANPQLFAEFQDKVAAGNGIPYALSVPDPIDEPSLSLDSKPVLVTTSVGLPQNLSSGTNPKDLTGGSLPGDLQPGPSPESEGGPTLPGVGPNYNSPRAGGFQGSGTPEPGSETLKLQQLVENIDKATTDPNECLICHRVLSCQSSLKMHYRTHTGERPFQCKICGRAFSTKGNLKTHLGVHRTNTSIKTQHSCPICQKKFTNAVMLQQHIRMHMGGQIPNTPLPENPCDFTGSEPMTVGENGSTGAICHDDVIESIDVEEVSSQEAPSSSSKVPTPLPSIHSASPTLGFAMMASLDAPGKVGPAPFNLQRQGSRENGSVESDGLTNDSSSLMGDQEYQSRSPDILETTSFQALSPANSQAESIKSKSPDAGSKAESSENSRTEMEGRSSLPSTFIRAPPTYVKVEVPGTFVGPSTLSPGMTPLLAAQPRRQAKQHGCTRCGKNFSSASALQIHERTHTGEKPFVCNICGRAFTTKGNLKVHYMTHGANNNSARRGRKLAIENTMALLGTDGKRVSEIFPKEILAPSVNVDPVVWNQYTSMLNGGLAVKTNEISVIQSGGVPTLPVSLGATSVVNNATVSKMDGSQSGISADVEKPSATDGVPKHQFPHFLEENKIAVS

Series 1
Target: CCNB2, cyclin fold, Cln2 fusion (human)
Technique: yeast growth competition, sequencing
Medium: yeast
Notes: strong parent motif
Reference: not given
Direction: higher = stronger binding
Quantity: normalised enrichment score
Parent: viral docking peptide; KKAKRRLFTISDS
KKAKRRLFTISDA [S13A]: 0.785
KKAKRALFTISDS [R6A]: 0.604
KKAKRRAFTISDS [L7A]: 0.235
AKAKRRLFTISDS [K1A]: 0.569
KKAKRRLATISDS [F8A]: 0.53
KKAKARAFTISDS [R5A L7A]: 0.341
KKAKRRLFTIADS [S11A]: 0.843
KKAKRRLLTISDS [F8L]: 0.823

Series 2
Target: tungstate, free oxyanion
Technique: microfluidic competitive inhibition
Medium: in vitro, cell-free expressed
Tested at: not given
Notes: derived from inhibition constants, unchanged parent 2230 nM
Direction: lower = stronger binding
Quantity: oxyanion analog dissociation constant
Parent: PafA, mature enzyme, eGFP fusion (Elizabethkingia meningoseptica, UniProt Q9KJX5); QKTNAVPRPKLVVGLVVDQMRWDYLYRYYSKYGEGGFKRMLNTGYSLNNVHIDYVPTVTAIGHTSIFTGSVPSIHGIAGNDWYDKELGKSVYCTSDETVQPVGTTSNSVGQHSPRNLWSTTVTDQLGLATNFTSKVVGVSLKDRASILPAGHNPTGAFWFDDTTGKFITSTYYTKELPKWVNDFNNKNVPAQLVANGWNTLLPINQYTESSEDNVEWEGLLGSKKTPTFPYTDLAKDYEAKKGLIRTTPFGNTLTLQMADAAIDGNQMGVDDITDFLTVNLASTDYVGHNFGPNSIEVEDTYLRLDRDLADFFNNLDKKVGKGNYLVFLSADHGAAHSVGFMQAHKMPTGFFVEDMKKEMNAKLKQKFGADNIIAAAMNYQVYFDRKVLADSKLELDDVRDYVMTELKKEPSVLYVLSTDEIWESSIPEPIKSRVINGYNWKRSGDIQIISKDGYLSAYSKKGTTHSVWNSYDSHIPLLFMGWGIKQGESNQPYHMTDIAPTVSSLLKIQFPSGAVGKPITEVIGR
G525A: 1.96 µM
F341V: 2.15 µM
F67V: 843 nM
Y302G: 2.42 µM
T130G: 2.08 µM
T497G: 2.48 µM
M356V: 2.08 µM
I273G: 2.12 µM

Series 3
Target: UDP-N-acetylglucosamine--peptide N-acetylglucosaminyltransferase 110 kDa subunit (OGT, Homo sapiens, UniProt O15294)
Read-out: binding
Technique: phage display NGS
Molecule type: peptide
Notes: panning round 2
Reference: input library
Quantity: minimum log2 enrichment ratio
Residues (O15294 1-1046): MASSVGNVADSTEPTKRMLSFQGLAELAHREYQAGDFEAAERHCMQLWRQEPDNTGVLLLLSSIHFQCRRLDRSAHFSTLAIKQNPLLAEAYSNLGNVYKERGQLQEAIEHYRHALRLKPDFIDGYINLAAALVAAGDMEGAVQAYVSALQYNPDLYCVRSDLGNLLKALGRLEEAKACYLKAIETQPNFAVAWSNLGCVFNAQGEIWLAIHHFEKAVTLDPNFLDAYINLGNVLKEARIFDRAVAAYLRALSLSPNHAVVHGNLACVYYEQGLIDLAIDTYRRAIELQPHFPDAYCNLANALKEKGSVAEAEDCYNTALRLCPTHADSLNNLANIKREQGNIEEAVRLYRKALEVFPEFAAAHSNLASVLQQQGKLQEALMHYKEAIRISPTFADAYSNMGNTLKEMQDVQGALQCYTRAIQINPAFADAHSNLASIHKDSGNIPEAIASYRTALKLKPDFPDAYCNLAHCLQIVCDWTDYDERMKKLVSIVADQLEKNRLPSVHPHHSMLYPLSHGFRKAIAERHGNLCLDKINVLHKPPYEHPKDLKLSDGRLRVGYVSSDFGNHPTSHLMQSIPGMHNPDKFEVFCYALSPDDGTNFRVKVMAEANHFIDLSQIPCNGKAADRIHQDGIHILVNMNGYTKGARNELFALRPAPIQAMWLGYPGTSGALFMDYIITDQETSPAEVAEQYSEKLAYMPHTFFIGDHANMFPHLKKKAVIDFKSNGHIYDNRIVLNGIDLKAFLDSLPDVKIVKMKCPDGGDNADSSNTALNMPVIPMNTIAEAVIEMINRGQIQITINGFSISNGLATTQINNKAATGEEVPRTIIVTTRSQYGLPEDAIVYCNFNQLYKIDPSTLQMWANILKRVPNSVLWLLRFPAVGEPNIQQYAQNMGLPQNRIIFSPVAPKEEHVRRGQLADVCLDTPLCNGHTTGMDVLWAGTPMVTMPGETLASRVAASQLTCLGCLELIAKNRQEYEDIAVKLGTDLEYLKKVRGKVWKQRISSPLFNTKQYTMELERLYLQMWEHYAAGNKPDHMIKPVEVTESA
FSFKPVYEIVLEQK: 3.88
HDPYHYRYSPQHNSY: 2.63
HPTAHYHHQAIRHFQ: 1.98
LTPFHTHHGHVTRG: 2.06
IVGAIFPPKYLITYA: 4.67
HQYDIHHHTYTVRVH: 2.36
ADFQLTYKPLYQIVA: 2.93
THPTKYHRHDHIRMI: 2.44

Single results of other studies
O=C1CCC(N2Cc3c(ccc4c3OCC43CCN(Cc4ccccc4)CC3)C2=O)C(=O)N1 (stereo not shown)  remaining protein (Sal-like protein 4 (SALL4, Homo sapiens, UniProt Q9UJQ4); degrader, HiBiT; HEK293; 0.04115 µM, 6 h): 81.3%
